Results from different studies.
A part holds a random share of what one study measured.
Chain of UniProt P00519 (whole entry, unmodified, looked up): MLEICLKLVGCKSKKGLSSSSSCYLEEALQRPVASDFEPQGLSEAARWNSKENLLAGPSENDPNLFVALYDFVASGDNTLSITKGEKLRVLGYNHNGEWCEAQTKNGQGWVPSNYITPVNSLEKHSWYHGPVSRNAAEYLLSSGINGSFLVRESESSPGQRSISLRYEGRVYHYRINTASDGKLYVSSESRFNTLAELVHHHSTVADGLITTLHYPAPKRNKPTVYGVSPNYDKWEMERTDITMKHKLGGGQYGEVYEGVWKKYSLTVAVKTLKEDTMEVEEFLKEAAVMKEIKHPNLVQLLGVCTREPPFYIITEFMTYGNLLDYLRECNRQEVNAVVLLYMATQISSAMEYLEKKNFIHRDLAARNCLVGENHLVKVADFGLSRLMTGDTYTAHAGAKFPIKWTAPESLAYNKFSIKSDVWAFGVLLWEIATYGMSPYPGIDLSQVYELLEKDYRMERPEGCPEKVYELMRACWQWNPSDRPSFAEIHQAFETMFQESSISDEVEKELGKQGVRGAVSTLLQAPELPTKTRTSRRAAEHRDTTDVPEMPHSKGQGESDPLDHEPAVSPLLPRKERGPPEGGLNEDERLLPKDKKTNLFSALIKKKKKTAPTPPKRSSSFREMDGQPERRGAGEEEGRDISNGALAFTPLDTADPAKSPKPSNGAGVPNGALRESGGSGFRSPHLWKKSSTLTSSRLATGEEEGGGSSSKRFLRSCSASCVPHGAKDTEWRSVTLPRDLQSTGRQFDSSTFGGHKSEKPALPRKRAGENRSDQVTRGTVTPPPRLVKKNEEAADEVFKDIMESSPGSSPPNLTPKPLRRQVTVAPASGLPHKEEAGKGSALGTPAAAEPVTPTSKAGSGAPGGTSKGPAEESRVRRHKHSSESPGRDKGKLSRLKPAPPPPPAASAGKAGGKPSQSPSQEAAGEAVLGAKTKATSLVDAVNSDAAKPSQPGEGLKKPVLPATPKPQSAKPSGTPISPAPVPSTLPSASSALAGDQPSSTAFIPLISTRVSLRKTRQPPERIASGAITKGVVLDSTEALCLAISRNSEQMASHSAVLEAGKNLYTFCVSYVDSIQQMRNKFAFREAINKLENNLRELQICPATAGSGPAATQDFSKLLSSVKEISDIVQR
Chain of UniProt P37173 (whole entry, looked up): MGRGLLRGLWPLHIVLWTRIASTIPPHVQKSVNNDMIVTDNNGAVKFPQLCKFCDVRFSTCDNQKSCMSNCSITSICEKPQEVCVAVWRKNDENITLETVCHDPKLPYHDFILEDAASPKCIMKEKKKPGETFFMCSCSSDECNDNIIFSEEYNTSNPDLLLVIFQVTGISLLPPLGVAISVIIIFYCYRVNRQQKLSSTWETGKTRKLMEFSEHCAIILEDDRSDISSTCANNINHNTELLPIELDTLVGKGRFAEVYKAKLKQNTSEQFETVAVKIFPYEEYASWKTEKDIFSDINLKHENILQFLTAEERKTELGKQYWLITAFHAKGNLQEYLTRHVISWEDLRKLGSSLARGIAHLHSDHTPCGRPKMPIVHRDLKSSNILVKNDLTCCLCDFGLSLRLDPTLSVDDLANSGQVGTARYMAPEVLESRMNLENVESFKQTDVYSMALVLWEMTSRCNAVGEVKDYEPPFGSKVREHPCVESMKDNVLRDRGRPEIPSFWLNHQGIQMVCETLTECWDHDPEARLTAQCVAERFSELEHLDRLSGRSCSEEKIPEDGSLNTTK
Chain of UniProt P07949 (whole entry, looked up): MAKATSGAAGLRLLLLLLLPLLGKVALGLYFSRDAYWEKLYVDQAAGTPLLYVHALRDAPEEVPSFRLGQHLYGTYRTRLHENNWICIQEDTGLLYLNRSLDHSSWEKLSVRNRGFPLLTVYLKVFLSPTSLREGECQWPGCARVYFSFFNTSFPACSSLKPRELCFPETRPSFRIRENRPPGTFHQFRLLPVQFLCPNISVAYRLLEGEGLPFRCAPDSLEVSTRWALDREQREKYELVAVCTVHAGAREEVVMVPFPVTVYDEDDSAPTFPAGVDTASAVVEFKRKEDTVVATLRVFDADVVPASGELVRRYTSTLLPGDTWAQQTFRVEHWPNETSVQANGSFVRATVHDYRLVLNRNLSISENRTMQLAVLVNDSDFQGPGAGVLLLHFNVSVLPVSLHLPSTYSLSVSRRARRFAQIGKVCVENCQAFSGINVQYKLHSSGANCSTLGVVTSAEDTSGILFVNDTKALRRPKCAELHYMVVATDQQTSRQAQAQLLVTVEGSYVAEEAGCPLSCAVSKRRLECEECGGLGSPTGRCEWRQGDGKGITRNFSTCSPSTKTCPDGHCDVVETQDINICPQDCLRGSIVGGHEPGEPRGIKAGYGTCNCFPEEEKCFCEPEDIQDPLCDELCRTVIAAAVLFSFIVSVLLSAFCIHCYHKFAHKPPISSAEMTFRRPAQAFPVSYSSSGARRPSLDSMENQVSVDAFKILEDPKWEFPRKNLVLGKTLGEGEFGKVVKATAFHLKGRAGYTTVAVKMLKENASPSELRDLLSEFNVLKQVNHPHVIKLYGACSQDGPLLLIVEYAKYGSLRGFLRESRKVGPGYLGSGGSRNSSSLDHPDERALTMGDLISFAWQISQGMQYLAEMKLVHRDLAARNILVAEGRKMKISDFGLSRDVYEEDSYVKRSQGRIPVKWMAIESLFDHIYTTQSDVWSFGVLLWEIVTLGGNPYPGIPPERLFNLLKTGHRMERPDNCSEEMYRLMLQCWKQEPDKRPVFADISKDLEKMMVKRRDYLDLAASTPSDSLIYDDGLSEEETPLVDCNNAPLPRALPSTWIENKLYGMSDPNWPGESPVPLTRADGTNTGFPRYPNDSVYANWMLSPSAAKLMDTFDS
Chain of UniProt Q9Y2K2 (whole entry, looked up): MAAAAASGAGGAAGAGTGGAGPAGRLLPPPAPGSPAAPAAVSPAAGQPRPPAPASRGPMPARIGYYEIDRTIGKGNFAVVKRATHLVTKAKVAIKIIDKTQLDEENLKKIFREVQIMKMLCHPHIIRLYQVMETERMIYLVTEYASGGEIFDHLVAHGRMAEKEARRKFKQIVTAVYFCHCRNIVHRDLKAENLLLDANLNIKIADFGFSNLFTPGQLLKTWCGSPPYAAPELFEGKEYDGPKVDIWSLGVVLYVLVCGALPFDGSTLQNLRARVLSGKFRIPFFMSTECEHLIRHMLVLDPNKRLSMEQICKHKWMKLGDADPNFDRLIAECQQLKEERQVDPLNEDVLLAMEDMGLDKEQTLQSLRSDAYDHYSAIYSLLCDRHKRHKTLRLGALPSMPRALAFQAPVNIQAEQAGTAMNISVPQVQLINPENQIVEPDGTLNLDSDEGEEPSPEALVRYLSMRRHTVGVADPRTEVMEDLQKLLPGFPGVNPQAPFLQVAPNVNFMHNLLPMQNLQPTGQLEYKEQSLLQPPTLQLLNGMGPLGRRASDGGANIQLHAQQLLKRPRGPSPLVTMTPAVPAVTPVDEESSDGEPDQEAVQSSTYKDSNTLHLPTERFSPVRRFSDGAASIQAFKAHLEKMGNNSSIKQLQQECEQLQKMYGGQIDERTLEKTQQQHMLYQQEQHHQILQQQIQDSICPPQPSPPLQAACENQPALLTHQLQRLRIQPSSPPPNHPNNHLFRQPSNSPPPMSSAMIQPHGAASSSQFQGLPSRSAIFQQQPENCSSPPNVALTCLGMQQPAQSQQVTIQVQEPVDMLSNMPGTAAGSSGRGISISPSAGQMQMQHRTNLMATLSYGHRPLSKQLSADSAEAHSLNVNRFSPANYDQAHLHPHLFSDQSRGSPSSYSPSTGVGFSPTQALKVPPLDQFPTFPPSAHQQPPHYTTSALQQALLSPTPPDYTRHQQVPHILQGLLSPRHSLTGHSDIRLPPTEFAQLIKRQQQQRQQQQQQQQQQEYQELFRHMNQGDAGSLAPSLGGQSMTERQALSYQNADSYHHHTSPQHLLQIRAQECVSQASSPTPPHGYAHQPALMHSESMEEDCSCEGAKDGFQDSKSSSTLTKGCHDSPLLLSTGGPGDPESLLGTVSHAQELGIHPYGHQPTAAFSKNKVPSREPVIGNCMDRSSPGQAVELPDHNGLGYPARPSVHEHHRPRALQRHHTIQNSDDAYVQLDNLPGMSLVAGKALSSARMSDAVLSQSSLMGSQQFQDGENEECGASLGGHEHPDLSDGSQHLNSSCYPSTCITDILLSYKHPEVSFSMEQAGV
Chain of UniProt Q8IY84 (whole entry, looked up): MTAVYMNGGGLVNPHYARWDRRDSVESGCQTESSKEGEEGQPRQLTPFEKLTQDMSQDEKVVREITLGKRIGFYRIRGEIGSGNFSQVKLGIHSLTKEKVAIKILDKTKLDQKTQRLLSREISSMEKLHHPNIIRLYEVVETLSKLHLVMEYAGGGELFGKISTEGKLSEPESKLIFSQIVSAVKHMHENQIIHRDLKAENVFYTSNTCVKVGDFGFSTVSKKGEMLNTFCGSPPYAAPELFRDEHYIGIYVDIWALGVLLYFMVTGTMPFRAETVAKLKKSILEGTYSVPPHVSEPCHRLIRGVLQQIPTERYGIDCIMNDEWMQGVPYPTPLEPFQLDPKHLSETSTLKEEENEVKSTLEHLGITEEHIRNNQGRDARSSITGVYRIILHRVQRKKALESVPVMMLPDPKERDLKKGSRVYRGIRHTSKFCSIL
Chain of UniProt Q9NWZ3 (whole entry, looked up): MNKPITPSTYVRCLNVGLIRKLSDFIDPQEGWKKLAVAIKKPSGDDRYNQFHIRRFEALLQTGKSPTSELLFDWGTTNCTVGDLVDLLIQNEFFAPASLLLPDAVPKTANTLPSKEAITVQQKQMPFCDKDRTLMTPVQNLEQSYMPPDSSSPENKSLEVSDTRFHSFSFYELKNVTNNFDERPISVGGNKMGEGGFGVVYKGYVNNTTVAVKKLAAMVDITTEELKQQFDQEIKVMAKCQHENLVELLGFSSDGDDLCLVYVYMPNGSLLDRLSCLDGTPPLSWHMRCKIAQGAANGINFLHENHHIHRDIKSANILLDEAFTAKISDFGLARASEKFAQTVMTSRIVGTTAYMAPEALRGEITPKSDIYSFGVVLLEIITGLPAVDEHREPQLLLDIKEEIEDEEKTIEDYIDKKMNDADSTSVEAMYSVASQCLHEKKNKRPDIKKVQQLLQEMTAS

Series 1
Cell line: HaCaT
Concentration: 100 µM
Time: 60 h
Compound	viability [%]
C[C@]12C=CC(=O)C=C1CC[C@@H]1[C@@H]2C(=O)C[C@@]2(C)[C@H]1CC[C@]2(O)C(=O)CO	166
O=C1CC2(CCCC2)CC(=O)N1CCCCN1CCN(c2ncccn2)CC1	117
O=C(O)c1cc(/N=N/c2ccc(O)c(C(=O)O)c2)ccc1O	144
Oc1c(I)cc(Cl)c2cccnc12	15
CN(C)[C@@H]1C(O)=C(C(N)=O)C(=O)[C@@]2(O)C(O)=C3C(=O)c4c(O)ccc(Cl)c4[C@@H](O)[C@H]3C[C@@H]12	96.9

Series 2
Organism: Sarcocystis neurona
Effect on: parasite growth
Concentration: 10 µM
Time: 96 h
Reference: untreated
SMILES	log2 fold change
CCOC(=O)CCC(=O)O[C@H]1[C@H](O[C@@H]2[C@@H](C)[C@H](O[C@H]3C[C@@](C)(OC)[C@@H](O)[C@H](C)O3)[C@@H](C)C(=O)O[C@H](CC)[C@@](C)(O)[C@H](O)[C@@H](C)C(=O)[C@H](C)C[C@@]2(C)O)O[C@H](C)C[C@@H]1N(C)C	-0.31
O=C(O)COCCN1CCN([C@H](c2ccccc2)c2ccc(Cl)cc2)CC1	0.36
Cc1ccnc2c1NC(=O)c1cccnc1N2C1CC1	0.29
Cc1onc(-c2c(Cl)cccc2Cl)c1C(=O)N[C@@H]1C(=O)N2[C@@H]1SC(C)(C)[C@@H]2C(=O)O	0.33
CN1CCN(C2=Nc3cc(Cl)ccc3Nc3ccccc32)CC1	0.36
NC1CCN(c2nc3c(cc2F)c(=O)c(C(=O)O)cn3-c2ccc(F)cc2F)C1 (stereo not drawn)	-0.17

Series 3
SMILES: CN1CCN(c2cnc3c(C4CCN(C(=O)c5ccc(OC(F)(F)F)cc5N)CC4)ncnc3c2)CC1
Effect on: cell-free assay
Method: competition with immobilised ligand
Concentration: 1 µM
target	remaining binding
RET (Homo sapiens, UniProt P07949)	100%
SIK3 (Homo sapiens, UniProt Q9Y2K2)	100%
EPHA6 (Homo sapiens, UniProt Q9UF33)	100%
RIOK2 (Homo sapiens, UniProt Q9BVS4)	100%
Ribosomal protein S6 kinase alpha-1, N-terminal kinase domain (RPS6KA1, Homo sapiens, UniProt Q15418)	100%
TGFBR2 (Homo sapiens, UniProt P37173)	88%
NIM1K (Homo sapiens, UniProt Q8IY84)	100%
STK26 (Homo sapiens, UniProt Q9P289)	98%
AXL (Homo sapiens, UniProt P30530)	78%
Tyrosine-protein kinase ABL1, phosphorylated (ABL1, Homo sapiens, UniProt P00519, F317L)	100%
PDPK1 (Homo sapiens, UniProt O15530)	85%
IRAK4 (Homo sapiens, UniProt Q9NWZ3)	90%
COQ8B (Homo sapiens, UniProt Q96D53)	100%

Series 4
Compound: CC(C)n1cnc(-c2ccc(F)cc2)c1-c1ncc(C(=O)Nc2ccc(N3CCN(C)CC3)cc2)[nH]1
Method: phase 2a trial
Species: idiopathic pulmonary fibrosis patients
dose	setting	patients with hypothyroidism
60 mg once daily	grade 2 emergent event	0%
30 mg once daily	grade 1 emergent event	0%
all arms pooled	grade 2 emergent event	0%
